Results from different studies.
Every numbered part comes from another study and shows a few of its results, in no order. Substitutions count along the parent as printed.

Series 1 — technique: protein-binding microarray; form: double-stranded DNA, one strand shown; medium: in vitro; tested at: not given; reading: higher = stronger binding; measurement: E-score
Target: Transcription factor Sp1 (SP1, Homo sapiens, UniProt P08047, residues 1-785, full length assumed)
UniProt P08047, sequence (whole entry, looked up): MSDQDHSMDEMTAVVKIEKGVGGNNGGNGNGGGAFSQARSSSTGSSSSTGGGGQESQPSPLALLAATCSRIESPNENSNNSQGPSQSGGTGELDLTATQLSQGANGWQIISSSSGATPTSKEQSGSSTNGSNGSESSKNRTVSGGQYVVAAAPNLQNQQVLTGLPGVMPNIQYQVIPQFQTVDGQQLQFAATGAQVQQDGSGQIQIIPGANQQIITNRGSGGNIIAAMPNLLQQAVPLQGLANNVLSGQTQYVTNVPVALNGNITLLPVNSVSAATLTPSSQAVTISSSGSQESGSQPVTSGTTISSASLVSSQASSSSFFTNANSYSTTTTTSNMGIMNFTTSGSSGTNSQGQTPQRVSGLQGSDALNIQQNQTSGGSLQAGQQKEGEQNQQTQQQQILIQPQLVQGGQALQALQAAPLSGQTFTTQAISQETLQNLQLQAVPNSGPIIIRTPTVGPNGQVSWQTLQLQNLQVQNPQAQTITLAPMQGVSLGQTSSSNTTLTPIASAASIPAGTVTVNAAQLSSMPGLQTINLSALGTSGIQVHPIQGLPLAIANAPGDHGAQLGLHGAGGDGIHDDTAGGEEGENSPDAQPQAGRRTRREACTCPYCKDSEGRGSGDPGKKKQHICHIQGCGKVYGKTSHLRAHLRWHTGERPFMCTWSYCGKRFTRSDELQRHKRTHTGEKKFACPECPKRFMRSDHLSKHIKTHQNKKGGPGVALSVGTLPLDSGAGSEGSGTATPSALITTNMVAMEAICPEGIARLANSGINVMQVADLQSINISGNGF
Notes: k-mer, scored over probes, only values ≥0.25
AATGTATA: 0.266
AGTATACT: 0.268
GTATTGTA: 0.262
CCCCTCTA: 0.348
ACCCACAT: 0.263
CCTCCCAC: 0.385
TATTCACA: 0.252

Series 2 — technique: protein binding microarray; form: double-stranded DNA, one strand shown; medium: in vitro; tested at: not given; relative to: not given; reading: higher = stronger binding; measurement: E-score
Target: Histone acetyltransferase KAT6A, both winged helices, GST fusion (KAT6A, Homo sapiens, UniProt Q92794, residues 1-181)
Notes: 8-mer, flanks averaged, mean of 2 arrays, mostly near background
Residues (chain): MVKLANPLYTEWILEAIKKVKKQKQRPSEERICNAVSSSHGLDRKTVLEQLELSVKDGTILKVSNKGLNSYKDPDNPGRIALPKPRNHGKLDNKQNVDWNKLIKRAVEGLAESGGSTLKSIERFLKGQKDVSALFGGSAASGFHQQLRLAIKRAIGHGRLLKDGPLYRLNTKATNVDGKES
GTTATGTA: -0.0916
ACAAAACT: -0.263
CCAATGAC: -0.199
AAAGAACC: 0.0284
CCTAAGAG: -0.242
CCGGCTGC: 0.154
AGACGACG: 0.0272
TGATCTAA: -0.135
CGAAAATA: 0.106

Series 3 — target: CCND1, cyclin fold, Cln2 fusion (human); technique: yeast growth competition, sequencing; medium: yeast; notes: weak parent motif; relative to: not given; reading: higher = stronger binding; measurement: normalised enrichment score
Starting sequence: BRCA2 docking peptide (human); PSIKRNLLNEFDR; partner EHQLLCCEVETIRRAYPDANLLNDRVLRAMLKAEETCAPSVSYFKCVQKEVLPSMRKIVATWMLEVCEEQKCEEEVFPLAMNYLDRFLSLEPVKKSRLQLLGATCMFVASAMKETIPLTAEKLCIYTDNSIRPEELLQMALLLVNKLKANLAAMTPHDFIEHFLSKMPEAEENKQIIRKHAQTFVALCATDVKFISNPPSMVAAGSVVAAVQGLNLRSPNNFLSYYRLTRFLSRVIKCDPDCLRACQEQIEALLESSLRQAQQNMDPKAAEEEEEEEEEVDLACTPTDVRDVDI
PSIKRQLLNEFDR [N6Q]: -0.0314
PFIKRNLLNEFDR [S2F]: 0.0249
PSIKRNLLNEFDK [R13K]: 0.12
PSIKRNLLNDFDR [E10D]: 0.89
PSIPRNLLNEFDR [K4P]: 0.312

Other studies, line by line
PhoQ, residues 284 288 289 292 302 303 SMMNNA
fold induction (PhoP, residues 12 14 15 18 19 AWHSL (Escherichia coli, UniProt P23836); Sort-seq, refers to: YFP reporter; E. coli; PhoQ-PhoP variant library, added: 10 µM Mg2+; relative to: high Mg2+ state, higher = stronger signaling): 4.35

For quick reference, copied from above (series 2):
AAAGAACC: 0.0284
CCTAAGAG: -0.242
